Measured values from different studies.
Each line is one published result; not all experiments were run side by side.

| Compound | species | sample | route | dose | setting | added | Tmax |
| --- | --- | --- | --- | --- | --- | --- | --- |
| C#Cc1cccc(Nc2ncnc3cc(OCCOC)c(OCCOC)cc23)c1 | NOD/SCID mouse, male | whole blood or plasma | oral | 12.5 mg/kg every 12 h | day 1 |  | 3 h |
| Cc1ccc(Nc2nccc(N(C)c3ccc4c(C)n(C)nc4c3)n2)cc1S(N)(=O)=O | mouse non-tumour-bearing | plasma | oral | 150 mg/kg single | alone or with topotecan |  | 2 h |
| Cc1cc(-c2cc(OC(=O)c3ccccc3)ccc2Cl)cc2nnc(Nc3ccc(OCCN4CCCC4)cc3)nc12 | C57BL/6 mouse | retina | topical | 1% |  |  | 1 h |
| COc1ccc(CCN2CCC(Nc3nc4ccccc4n3Cc3ccc(F)cc3)CC2)cc1 | C2 mouse male | whole blood | intravenous | 8 mg/kg |  |  | 0.467 h |
| CC(C)NC(=O)COc1cccc(-c2nc(Nc3ccc4[nH]ncc4c3)c3ccccc3n2)c1 | male C57BL/6 mouse | brain | oral | 100 mg/kg | one-compartment model |  | 2 h |
| COc1cccc2c1C(=O)c1c(O)c3c(c(O)c1C2=O)C[C@@](O)(C(=O)CO)C[C@@H]3O[C@H]1C[C@H](N)[C@H](O)[C@H](C)O1 | mouse, E0771 tumour-bearing | liver | intravenous | 92 µmol/kg |  |  | 0.0833 h |
| CCOc1ccc(NC(=S)N(CCO)Cc2cc3cc(C)cc(C)c3[nH]c2=O)cc1 | C57BL/6J mouse | plasma | oral | 3 mg/kg |  | ABT 50 mg/kg oral pretreatment 2 h before | 4 h |
| Cc1c2oc3c(C)ccc(C(=O)N[C@@H]4C(=O)N[C@H](C(C)C)C(=O)N5CCC[C@H]5C(=O)N(C)CC(=O)N(C)[C@@H](C(C)C)C(=O)O[C@@H]4C)c3nc-2c(C(=O)N[C@@H]2C(=O)N[C@H](C(C)C)C(=O)N3CCC[C@H]3C(=O)N(C)CC(=O)N(C)[C@@H](C(C)C)C(=O)O[C@@H]2C)c(N)c1=O | mouse, Abcc2−/− knockout, FVB background | brain | intravenous | 0.5 mg/kg |  |  | 0.5 h |

Some of these lines once more:
| Compound | species | sample | route | dose | setting | added | Tmax |
| --- | --- | --- | --- | --- | --- | --- | --- |
| Cc1cc(-c2cc(OC(=O)c3ccccc3)ccc2Cl)cc2nnc(Nc3ccc(OCCN4CCCC4)cc3)nc12 | C57BL/6 mouse | retina | topical | 1% |  |  | 1 h |
